# Measured values from different studies.
# Each numbered part is a random draw from the data of one study; scales do not carry over between parts.
# Sequence of UniProt P00519 (whole entry, unmodified, looked up): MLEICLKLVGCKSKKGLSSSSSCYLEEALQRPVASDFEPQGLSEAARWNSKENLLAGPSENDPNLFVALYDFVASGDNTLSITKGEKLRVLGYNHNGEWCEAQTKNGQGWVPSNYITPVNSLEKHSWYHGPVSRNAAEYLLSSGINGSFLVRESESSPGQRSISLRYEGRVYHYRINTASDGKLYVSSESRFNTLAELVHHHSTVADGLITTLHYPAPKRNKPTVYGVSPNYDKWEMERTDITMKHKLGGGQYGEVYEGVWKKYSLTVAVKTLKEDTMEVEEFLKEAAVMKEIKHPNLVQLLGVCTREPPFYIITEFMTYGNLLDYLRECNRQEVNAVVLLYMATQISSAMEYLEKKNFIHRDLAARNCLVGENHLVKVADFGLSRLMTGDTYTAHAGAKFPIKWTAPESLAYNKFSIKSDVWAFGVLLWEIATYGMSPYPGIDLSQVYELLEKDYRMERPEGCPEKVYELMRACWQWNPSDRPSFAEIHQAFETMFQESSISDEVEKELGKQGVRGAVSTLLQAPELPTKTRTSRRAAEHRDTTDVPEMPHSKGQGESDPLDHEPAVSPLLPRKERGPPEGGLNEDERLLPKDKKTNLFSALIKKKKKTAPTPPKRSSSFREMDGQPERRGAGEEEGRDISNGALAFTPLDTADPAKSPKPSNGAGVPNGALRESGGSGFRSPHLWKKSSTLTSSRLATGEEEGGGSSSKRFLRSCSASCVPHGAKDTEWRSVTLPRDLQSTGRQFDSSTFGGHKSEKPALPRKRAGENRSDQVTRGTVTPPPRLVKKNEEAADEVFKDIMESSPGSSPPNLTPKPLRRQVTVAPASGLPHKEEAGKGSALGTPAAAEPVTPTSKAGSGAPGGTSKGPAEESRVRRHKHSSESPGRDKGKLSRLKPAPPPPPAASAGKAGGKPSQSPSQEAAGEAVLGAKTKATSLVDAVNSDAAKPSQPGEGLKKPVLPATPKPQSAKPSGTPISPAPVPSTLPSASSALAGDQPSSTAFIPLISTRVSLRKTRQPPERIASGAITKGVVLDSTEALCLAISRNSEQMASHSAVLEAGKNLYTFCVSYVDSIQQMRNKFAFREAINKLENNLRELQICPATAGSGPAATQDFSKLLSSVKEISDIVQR
# Sequence of UniProt Q02779 (whole entry, looked up): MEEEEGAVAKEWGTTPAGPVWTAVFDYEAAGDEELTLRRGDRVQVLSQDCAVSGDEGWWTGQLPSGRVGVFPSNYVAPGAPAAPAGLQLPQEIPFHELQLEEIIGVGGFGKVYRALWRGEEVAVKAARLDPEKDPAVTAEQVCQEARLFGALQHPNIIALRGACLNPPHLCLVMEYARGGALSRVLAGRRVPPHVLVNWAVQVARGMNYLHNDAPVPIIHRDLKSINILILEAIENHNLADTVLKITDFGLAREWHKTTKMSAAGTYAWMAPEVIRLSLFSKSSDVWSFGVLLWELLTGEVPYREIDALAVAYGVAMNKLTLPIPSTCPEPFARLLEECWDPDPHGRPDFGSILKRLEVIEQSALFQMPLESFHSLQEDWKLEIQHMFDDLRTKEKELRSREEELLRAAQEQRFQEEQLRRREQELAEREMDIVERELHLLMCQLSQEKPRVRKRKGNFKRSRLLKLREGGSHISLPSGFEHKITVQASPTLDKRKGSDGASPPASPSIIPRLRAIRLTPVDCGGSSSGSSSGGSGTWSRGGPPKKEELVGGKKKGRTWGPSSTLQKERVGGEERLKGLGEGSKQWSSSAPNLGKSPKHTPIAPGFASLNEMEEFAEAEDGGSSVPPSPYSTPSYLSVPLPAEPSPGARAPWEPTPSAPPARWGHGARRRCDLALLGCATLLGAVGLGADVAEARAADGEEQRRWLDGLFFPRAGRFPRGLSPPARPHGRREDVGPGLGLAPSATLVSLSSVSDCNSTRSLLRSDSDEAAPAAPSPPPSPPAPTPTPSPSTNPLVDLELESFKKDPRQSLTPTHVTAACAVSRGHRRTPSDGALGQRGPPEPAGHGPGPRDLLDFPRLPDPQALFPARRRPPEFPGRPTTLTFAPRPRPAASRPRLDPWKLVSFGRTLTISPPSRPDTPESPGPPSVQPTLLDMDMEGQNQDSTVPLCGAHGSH
# Sequence of UniProt Q8WTQ7 (whole entry, looked up): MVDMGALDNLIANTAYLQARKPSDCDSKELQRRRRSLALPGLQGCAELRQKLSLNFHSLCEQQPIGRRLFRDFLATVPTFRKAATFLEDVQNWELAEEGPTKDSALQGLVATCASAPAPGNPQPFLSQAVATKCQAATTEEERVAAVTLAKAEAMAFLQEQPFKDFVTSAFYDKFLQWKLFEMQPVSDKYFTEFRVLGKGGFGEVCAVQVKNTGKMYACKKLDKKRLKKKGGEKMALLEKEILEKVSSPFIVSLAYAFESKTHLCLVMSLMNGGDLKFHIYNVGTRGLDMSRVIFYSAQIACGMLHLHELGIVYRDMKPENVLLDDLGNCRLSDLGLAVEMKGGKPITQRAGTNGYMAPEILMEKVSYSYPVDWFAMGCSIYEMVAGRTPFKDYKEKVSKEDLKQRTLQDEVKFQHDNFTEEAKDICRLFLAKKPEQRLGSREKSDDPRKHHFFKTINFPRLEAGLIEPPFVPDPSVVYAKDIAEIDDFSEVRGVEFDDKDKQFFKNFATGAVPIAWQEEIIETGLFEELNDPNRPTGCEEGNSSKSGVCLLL
# Sequence of UniProt P35590 (whole entry, looked up): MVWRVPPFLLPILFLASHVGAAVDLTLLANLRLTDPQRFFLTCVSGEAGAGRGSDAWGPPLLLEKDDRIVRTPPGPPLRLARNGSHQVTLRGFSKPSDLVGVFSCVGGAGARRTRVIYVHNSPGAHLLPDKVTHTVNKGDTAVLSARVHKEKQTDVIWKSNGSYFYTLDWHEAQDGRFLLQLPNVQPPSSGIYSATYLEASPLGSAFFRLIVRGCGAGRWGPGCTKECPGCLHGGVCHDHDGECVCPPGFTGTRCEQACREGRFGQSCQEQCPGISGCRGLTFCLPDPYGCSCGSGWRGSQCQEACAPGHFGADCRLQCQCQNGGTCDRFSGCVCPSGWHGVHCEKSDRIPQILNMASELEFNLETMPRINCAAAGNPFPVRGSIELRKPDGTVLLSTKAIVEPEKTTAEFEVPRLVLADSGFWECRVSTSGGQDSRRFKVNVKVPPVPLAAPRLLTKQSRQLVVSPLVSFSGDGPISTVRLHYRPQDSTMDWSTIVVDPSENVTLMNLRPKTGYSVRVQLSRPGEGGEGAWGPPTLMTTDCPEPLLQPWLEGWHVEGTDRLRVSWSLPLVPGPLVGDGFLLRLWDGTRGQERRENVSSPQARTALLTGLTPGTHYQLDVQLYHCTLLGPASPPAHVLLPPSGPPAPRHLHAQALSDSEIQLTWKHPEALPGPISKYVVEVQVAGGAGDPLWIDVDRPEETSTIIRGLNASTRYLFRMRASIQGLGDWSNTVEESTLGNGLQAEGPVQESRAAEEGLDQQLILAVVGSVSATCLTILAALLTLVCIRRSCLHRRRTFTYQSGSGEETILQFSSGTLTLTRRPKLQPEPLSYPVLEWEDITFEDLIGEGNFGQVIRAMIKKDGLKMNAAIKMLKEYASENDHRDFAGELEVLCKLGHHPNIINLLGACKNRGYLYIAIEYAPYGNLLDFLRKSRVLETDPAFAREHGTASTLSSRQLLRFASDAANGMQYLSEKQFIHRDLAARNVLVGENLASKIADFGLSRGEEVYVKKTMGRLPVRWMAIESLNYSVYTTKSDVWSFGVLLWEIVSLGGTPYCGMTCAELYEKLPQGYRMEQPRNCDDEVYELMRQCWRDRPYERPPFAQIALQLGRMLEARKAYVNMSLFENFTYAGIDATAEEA
# Sequence of UniProt Q8N5S9 (whole entry, looked up): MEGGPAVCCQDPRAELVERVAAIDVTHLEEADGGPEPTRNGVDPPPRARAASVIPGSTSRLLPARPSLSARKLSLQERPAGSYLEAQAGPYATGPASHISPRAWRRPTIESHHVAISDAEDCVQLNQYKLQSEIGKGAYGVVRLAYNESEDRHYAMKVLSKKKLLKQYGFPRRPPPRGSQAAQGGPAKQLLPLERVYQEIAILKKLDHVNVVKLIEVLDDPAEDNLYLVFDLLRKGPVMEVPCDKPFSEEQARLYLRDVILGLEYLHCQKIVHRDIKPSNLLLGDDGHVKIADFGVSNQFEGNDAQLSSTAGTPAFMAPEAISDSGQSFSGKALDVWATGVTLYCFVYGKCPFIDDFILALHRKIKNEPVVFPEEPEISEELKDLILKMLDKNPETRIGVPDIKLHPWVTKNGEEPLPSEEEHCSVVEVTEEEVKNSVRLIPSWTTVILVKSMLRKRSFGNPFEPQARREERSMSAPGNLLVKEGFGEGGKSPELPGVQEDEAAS
# Sequence of UniProt Q00526 (whole entry, looked up): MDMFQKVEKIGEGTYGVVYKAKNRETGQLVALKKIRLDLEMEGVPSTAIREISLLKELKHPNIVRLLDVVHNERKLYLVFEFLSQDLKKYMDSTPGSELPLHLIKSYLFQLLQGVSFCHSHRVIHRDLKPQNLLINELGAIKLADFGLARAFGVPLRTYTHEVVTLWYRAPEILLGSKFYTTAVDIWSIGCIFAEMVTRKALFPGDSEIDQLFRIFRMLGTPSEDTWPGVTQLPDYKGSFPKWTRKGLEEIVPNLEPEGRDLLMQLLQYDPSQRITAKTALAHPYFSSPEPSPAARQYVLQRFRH

# Sample 1 — mode: agonist
# Target: Beta-1 adrenergic receptor (ADRB1, Homo sapiens, UniProt P08588)
# Sequence of UniProt P08588 (whole entry, looked up): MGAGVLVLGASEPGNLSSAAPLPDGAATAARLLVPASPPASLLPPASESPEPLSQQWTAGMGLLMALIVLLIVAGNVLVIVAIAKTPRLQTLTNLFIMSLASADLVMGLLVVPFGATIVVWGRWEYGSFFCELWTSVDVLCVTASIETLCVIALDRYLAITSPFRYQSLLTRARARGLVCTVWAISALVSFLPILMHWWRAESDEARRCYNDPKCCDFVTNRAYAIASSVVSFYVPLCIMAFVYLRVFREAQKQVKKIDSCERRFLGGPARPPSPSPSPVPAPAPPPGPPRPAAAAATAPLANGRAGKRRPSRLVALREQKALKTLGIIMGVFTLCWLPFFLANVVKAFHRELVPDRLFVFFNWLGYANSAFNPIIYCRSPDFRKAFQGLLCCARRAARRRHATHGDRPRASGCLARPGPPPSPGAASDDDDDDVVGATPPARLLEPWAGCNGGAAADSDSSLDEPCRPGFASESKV
SMILES,EC50
N#C/C(=C\c1ccc(O)c(O)c1)c1nc2ccccc2[nH]1,≥ 100 µM
Cc1nc(N)sc1-c1ccnc(Nc2ccc(N3CCOCC3)cc2)n1,≥ 100 µM
COc1ccccc1N1CCN(C(=O)Cc2cccs2)CC1,≥ 100 µM
COc1ccccc1N1CCN([C@H]2[C@@H]3OC[C@@H](O3)[C@@H](N(CC3CC3)CC3CC3)[C@@H]2O)CC1,≥ 100 µM
O=C(Cn1ncc(=O)c2ccccc21)NCC(O)c1ccc(F)c(F)c1 (stereo not drawn),≥ 100 µM
CN(C)c1cccc(NC(=O)Cc2c[nH]c3ncc(-c4cnn(C)c4)cc23)c1,≥ 100 µM

# Sample 2 — organism: Sarcocystis neurona; observed: parasite growth; concentration: 10 µM; time: 96 h; notes: first screen
Structure (SMILES),inhibition [%]
CC[C@H]1OC(=O)[C@H](C)[C@@H](O[C@H]2C[C@@](C)(OC)[C@@H](O)[C@H](C)O2)[C@H](C)[C@@H](O[C@@H]2O[C@H](C)C[C@H](N(C)C)[C@H]2O)[C@](C)(OC)C[C@@H](C)C(=O)[C@H](C)[C@@H](O)[C@]1(C)O,-0.9
CC1(C)O[C@@H]2C[C@H]3[C@@H]4C[C@H](F)C5=CC(=O)C=C[C@]5(C)[C@@]4(F)[C@@H](O)C[C@]3(C)[C@]2(C(=O)CO)O1,22.9
CCN1CCN(C(=O)N[C@@H](C(=O)N[C@@H]2C(=O)N3[C@@H]2SC(C)(C)[C@@H]3C(=O)O)c2ccccc2)C(=O)C1=O,-1.3
CC[C@H](C)C(=O)O[C@H]1C[C@H](O)C=C2C=C[C@H](C)[C@H](CC[C@@H](O)C[C@@H](O)CC(=O)O)[C@H]21,3.6
CC1(C)S[C@@H]2[C@H](NC(=O)[C@H](N)c3ccccc3)C(=O)N2[C@H]1C(=O)O,-2.1
CCc1ccc(CCOc2ccc(CC3SC(=O)NC3=O)cc2)nc1 (stereo not drawn),-30.9

# Sample 3 — observed: cell-free assay; method: competition with immobilised ligand; concentration: 1 µM
# SMILES: CNC(=O)Nc1ccc2c(c1)CC[C@@]21OC(=O)N(CC(=O)N(Cc2ccc(F)cc2)[C@@H](C)C(F)(F)F)C1=O
target,remaining binding [%]
"Tyrosine-protein kinase ABL1, phosphorylated (ABL1, Homo sapiens, UniProt P00519, F317I)",87
"Rhodopsin kinase GRK7 (GRK7, Homo sapiens, UniProt Q8WTQ7)",83
"Non-receptor tyrosine-protein kinase TYK2, JH2 (TYK2, Homo sapiens, UniProt P29597)",86
"Testis-specific serine/threonine-protein kinase 3 (TSSK3, Homo sapiens, UniProt Q96PN8)",88
"Cyclin-dependent kinase 3 (CDK3, Homo sapiens, UniProt Q00526)",100
"Tyrosine-protein kinase ABL1, phosphorylated (ABL1, Homo sapiens, UniProt P00519, F317L)",77
"Phosphorylase b kinase gamma catalytic chain, liver/testis isoform (PHKG2, Homo sapiens, UniProt P15735)",97
"Mitogen-activated protein kinase kinase kinase 10 (MAP3K10, Homo sapiens, UniProt Q02779)",57
"Tyrosine-protein kinase receptor Tie-1 (TIE1, Homo sapiens, UniProt P35590)",89
"Mitogen-activated protein kinase 14 (MAPK14, Homo sapiens, UniProt Q16539)",100
"Mitogen-activated protein kinase kinase kinase 13 (MAP3K13, Homo sapiens, UniProt O43283)",68
"Serine/threonine-protein kinase NIM1 (NIM1K, Homo sapiens, UniProt Q8IY84)",71
"Dual specificity protein kinase CLK3 (CLK3, Homo sapiens, UniProt P49761)",83
"Mitogen-activated protein kinase 15 (MAPK15, Homo sapiens, UniProt Q8TD08)",74
"Ephrin type-B receptor 4 (EPHB4, Homo sapiens, UniProt P54760)",80
"Serine/threonine-protein kinase Nek9 (NEK9, Homo sapiens, UniProt Q8TD19)",78
"Calcium/calmodulin-dependent protein kinase kinase 1 (CAMKK1, Homo sapiens, UniProt Q8N5S9)",70
"Epidermal growth factor receptor (EGFR, Homo sapiens, UniProt P00533)",100
"Phosphatidylinositol 4,5-bisphosphate 3-kinase catalytic subunit gamma isoform (PIK3CG, Homo sapiens, UniProt P48736)",95
"Serine/threonine-protein kinase D2 (PRKD2, Homo sapiens, UniProt Q9BZL6)",100
"Phosphatidylinositol 4,5-bisphosphate 3-kinase catalytic subunit alpha isoform (PIK3CA, Homo sapiens, UniProt P42336, C420R)",80
"Misshapen-like kinase 1 (MINK1, Homo sapiens, UniProt Q8N4C8)",95

# Sample 4
# SMILES: COc1cc(C(=O)N2CCC(N3CCN(C)CC3)CC2)ccc1Nc1ncc2c(n1)N(C)c1ccccc1C(=O)N2C
target or system,assay,system,setting,inhibition
NEK9 (mouse),"probe labelling, KiNativ ATP probe",mouse brain lysate,"1 µM, LYS1 labelled site",2.2%
SGK3 (mouse),"probe labelling, KiNativ, item: FYAVkVLQK peptide, LYS1 site",brain tissue lysate (mouse),"1 µM, with: ATP acyl-phosphate probe",-13.2%
MARK1 (mouse),"probe labelling, KiNativ ATP probe",mouse brain lysate,"1 µM, LYS1 labelled site",13.3%
MARK1 (mouse),"probe labelling, KiNativ ADP probe",mouse brain lysate,"1 µM, LYS1 labelled site",1.6%
human PBMC,"probe labeling, inhibitor, KiNativ profiling",cell lysate,"concentration not given, domain 1, LYS2 site, with: ADP acyl-phosphate probe 0.1 µM",-6.3%
AKT1 and AKT3 mouse,KiNativ profiling,mouse brain lysate,"0.1 µM, LYS1 site, with: ADP acyl phosphate probe",-13.1%
p38alpha (mouse),"probe labelling, inhibitor, KiNativ ActivX ATP probe",mouse brain lysate,"0.1 µM, peptide QELNkTIWEVPER",-18.3%
ILK (mouse),"probe labelling, KiNativ ATP probe",mouse brain lysate,"1 µM, LYS1 labelled site",4.7%
RSK2 kinase domain 2 (human),"probe labelling, KiNativ, item: Lys1 site peptide",PBMC lysate (human),"0.1 µM, with: ADP acyl-phosphate probe",0.4%

# Sample 5 — species: mouse; sample: microsomes or S9; concentration: 2 µM; time: 0.5 h
SMILES,remaining compound
O=C(O)CC1NC(=O)N(c2ccc(Cl)cc2)C1=O (stereo not drawn),85.7%
CCOC(=O)COc1cc(Br)c(C#N)cc1OCC,1.23%
CC(C)(C)OC(=O)N1CCCCC1CCOc1ccc2c(c1)CN(c1ccc(S(C)(=O)=O)cc1F)C2=O (stereo not drawn),34.9%
COC(=O)c1nc(C2CC(C(C)(C)C)=NO2)cc(NC(C)=O)c1Cl (stereo not drawn),20.7%
Cc1cc(-c2cc(=O)n(Cc3ccc(F)cc3Cl)nc2-c2ccco2)on1,93.7%
CCC(=O)Nc1ccc(C(=O)OCc2ccc(C(=O)c3ccccc3)cc2)cc1,83.2%
CCc1cc2c(Nc3ccc(OC)cc3OC)ncnc2s1,2.84%
CC(C)c1ccc(CNC(=O)CCCCNS(=O)(=O)c2ccccc2)cc1,4.54%

# Some of these lines once more (sample 4):
target or system,assay,system,setting,inhibition
AKT1 and AKT3 mouse,KiNativ profiling,mouse brain lysate,"0.1 µM, LYS1 site, with: ADP acyl phosphate probe",-13.1%
MARK1 (mouse),"probe labelling, KiNativ ATP probe",mouse brain lysate,"1 µM, LYS1 labelled site",13.3%
MARK1 (mouse),"probe labelling, KiNativ ADP probe",mouse brain lysate,"1 µM, LYS1 labelled site",1.6%
human PBMC,"probe labeling, inhibitor, KiNativ profiling",cell lysate,"concentration not given, domain 1, LYS2 site, with: ADP acyl-phosphate probe 0.1 µM",-6.3%
RSK2 kinase domain 2 (human),"probe labelling, KiNativ, item: Lys1 site peptide",PBMC lysate (human),"0.1 µM, with: ADP acyl-phosphate probe",0.4%
